Measurements from different studies.
Compare with care: the assays were run in different laboratories. Values joined by “and” are separate records of one study, mostly repeats; a detail may differ. Numbers after ± are the reported error.

Sequences of proteins named here, by UniProt entry; tags and fusion partners are left off. Residues count along the entry.
UniProt P31421, 19-872 limits assumed: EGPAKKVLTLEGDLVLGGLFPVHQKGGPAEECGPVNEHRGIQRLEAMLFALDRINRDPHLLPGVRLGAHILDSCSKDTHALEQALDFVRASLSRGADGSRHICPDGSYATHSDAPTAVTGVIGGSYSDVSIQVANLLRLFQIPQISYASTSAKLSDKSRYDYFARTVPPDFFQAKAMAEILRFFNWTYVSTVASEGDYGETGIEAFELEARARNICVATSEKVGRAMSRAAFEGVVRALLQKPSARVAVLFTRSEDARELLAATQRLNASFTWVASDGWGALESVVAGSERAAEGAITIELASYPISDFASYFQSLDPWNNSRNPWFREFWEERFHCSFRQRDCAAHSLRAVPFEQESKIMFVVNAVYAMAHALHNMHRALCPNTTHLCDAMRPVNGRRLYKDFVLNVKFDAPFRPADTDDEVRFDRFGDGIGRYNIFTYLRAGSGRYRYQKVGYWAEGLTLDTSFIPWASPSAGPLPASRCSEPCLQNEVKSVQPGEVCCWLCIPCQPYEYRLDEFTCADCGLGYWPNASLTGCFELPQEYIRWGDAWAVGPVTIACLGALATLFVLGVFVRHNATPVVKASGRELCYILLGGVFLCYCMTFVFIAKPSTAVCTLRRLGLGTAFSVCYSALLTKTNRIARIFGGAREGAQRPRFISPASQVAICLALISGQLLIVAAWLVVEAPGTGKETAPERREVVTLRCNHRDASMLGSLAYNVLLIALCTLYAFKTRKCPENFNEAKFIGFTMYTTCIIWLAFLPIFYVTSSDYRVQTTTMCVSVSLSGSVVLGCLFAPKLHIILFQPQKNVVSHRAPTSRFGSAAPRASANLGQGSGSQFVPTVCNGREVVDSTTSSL
UniProt Q8N884, whole entry: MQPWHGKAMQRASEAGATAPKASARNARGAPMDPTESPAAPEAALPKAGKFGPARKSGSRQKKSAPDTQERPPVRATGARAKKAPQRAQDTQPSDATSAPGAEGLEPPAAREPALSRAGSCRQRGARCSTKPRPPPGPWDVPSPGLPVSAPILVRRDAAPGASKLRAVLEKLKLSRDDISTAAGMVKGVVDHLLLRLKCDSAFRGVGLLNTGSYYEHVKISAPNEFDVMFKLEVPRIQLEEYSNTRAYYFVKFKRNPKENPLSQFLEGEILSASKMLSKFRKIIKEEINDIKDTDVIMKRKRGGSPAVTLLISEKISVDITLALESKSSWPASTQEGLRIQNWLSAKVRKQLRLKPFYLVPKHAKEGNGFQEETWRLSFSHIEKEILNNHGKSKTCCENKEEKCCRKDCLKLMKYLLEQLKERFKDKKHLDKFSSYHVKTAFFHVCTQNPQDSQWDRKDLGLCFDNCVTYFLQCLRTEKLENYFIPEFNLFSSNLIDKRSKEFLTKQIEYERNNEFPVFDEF
UniProt Q07440, 1-152 P104K/C113S limits assumed: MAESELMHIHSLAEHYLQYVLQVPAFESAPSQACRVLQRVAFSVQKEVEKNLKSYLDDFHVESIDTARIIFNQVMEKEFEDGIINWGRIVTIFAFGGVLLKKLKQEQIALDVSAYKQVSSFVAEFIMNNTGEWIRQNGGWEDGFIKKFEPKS
UniProt P49137, whole entry: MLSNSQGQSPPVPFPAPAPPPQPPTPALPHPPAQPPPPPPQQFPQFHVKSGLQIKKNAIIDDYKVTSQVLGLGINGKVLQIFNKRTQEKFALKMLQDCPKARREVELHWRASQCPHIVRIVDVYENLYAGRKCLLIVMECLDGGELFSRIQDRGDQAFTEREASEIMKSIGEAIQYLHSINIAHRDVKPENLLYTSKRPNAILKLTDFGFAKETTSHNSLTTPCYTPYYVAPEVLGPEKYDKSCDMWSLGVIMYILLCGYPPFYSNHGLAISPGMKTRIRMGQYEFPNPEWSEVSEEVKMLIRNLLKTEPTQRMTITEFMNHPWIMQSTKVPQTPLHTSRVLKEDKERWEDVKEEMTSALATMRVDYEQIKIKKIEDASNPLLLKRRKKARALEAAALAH
UniProt P03372, whole entry: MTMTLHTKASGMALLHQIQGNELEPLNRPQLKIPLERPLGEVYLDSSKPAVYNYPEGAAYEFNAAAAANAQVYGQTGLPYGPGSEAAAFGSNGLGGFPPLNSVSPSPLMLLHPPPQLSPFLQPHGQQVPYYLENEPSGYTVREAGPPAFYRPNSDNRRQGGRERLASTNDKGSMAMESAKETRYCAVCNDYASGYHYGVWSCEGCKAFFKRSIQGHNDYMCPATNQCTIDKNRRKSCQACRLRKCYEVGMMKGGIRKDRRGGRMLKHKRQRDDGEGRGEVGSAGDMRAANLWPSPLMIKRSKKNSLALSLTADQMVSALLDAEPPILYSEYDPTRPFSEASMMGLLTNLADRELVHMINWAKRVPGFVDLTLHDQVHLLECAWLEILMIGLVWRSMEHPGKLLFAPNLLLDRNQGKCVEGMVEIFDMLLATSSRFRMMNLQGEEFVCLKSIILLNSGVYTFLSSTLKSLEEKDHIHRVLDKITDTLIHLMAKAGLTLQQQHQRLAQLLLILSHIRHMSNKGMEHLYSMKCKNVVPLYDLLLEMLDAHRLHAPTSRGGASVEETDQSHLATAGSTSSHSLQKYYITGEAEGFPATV
UniProt P45985, whole entry: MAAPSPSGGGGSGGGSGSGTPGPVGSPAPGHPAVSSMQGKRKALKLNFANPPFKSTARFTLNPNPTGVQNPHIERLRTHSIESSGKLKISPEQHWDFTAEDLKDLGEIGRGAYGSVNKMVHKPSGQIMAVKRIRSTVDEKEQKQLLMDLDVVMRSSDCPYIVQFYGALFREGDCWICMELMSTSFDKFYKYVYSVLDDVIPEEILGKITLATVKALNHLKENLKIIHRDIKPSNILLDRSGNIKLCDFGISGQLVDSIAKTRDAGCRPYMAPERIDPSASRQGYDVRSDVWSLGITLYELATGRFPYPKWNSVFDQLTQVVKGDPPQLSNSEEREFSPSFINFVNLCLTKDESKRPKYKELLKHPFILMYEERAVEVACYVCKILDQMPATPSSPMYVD
UniProt P46934, whole entry, looked up: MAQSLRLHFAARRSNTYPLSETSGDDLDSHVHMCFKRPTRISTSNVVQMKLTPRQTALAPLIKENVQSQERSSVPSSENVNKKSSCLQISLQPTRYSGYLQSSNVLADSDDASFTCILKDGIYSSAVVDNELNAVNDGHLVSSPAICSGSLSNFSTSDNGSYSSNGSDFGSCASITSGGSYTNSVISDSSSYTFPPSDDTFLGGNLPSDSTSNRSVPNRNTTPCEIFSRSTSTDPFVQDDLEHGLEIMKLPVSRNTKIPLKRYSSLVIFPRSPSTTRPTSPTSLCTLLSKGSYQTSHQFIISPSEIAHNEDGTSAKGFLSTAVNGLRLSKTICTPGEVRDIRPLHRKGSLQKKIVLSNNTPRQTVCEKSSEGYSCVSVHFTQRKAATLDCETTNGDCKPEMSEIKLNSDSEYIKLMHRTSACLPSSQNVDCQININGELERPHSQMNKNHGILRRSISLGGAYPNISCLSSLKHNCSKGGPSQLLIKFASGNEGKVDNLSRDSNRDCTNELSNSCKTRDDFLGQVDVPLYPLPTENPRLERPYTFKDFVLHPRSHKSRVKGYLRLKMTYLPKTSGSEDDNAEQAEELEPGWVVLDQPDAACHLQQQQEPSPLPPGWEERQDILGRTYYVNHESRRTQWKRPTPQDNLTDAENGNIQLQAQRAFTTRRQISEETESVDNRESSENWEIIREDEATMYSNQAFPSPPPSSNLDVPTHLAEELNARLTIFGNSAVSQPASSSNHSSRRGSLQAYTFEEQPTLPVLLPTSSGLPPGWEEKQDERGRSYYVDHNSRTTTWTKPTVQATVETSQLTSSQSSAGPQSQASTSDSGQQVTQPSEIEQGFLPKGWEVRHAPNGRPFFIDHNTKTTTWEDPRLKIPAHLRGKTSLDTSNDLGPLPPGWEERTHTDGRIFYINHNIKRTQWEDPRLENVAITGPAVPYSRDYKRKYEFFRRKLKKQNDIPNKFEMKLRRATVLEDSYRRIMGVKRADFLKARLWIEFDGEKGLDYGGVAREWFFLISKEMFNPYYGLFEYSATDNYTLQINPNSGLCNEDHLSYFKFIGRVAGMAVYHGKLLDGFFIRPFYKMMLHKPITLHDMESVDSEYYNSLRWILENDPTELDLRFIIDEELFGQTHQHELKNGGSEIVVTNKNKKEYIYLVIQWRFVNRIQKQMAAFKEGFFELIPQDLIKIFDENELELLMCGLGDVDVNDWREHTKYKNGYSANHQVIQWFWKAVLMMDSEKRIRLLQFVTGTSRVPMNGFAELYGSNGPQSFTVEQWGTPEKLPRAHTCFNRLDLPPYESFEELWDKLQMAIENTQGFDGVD
UniProt P14902, whole entry: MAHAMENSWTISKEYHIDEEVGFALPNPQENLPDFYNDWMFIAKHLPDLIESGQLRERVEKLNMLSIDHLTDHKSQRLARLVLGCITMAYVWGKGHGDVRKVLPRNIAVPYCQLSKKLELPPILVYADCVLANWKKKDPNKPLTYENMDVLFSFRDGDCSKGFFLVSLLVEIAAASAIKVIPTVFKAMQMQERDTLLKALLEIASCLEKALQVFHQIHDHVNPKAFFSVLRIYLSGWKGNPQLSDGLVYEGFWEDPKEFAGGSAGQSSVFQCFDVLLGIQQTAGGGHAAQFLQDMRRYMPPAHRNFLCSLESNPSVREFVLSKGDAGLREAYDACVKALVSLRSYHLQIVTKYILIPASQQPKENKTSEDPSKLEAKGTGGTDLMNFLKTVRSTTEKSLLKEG
UniProt Q2M2I8, whole entry: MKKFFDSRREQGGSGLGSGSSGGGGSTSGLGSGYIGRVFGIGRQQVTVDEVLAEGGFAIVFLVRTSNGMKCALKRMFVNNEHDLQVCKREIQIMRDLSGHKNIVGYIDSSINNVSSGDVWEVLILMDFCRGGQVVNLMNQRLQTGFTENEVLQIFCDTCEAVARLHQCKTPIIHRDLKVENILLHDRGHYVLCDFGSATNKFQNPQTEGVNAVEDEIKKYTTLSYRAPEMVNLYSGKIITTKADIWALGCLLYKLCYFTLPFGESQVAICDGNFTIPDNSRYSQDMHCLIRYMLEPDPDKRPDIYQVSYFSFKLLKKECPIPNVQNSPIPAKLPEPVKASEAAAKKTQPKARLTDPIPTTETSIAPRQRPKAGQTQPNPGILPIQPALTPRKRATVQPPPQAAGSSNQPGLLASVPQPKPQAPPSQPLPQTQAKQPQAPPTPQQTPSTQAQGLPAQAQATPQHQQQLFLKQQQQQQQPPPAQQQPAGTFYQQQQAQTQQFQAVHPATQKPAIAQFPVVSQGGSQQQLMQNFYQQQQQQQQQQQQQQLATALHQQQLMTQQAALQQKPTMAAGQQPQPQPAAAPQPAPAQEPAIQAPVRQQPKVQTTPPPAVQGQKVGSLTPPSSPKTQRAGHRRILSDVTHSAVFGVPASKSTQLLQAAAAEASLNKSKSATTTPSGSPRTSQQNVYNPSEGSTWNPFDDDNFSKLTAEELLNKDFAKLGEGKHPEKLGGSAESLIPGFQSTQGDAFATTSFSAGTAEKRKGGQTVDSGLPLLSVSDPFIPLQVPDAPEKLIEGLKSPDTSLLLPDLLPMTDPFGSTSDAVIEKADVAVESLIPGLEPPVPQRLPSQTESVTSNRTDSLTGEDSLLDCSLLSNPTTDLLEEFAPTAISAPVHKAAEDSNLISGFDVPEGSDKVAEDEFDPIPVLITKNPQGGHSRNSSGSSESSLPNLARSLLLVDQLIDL
UniProt Q13304, whole entry: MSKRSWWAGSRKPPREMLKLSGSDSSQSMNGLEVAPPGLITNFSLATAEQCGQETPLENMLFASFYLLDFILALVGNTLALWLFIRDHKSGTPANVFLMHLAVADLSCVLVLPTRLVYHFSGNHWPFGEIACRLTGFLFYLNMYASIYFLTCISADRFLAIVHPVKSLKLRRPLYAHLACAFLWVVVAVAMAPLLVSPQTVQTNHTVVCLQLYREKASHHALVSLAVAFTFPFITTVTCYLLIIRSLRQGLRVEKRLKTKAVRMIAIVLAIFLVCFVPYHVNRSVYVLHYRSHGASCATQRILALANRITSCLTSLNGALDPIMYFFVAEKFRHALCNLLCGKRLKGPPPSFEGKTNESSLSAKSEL
UniProt A4HTR0, 1-443: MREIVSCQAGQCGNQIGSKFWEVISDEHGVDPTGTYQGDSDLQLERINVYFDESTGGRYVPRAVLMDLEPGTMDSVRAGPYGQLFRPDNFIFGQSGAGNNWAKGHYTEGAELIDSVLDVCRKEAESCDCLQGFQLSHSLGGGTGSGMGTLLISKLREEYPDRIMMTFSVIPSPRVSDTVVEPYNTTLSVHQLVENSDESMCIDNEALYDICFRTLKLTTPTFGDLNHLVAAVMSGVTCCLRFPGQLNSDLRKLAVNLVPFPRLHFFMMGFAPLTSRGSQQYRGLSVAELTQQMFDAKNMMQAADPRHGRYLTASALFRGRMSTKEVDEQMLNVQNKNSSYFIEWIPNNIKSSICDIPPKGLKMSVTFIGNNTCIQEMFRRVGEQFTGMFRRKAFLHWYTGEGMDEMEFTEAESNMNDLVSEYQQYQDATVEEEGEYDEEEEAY

`COCC#Cc1cc(-c2nn(-c3nc(C(=O)O)cs3)c(CC3CC3)c2Cc2ccc(S(N)(=O)=O)c(F)c2)ccc1F` has an IC50 of 0.005 µM (LDHA (Homo sapiens, UniProt P00338); enzyme activity, inhibitor).
The remaining activity of `COC(=O)[C@@]1(C)C=C(C(=O)Nc2cccc(C(=O)NC34CC(Nc5nccc(-c6cccnc6)n5)(C3)C4)c2)C(=O)CC1` is reported as 0.654 fraction of control (MAPK9 (Homo sapiens, UniProt P45984); enzyme activity, inhibitor; 0.02032 µM).
`CCOC(=O)C1=C(C)NC2=C(C(=O)CC(C)(C)C2)C1c1ccc(OCC(=O)NN=Cc2cccc(C=O)c2)cc1OCC(=O)NN=Cc1cccc(C=O)c1` (stereo not drawn): “inhibition zone diameter” 6.6 ± 0.3 mm (Bacillus subtilis; IM 622; concentration not given, 24 h).
The IC50 of `O=C(O)CC[C@H](NC(=O)c1cc(C(=O)O)cc([C@H]2CCN[C@@H]2C(=O)O)c1)C(=O)O` is reported as > 100 µM (kainate receptor (rat); binding, radioligand binding; rat cortical synaptosomes; together with: [3H]kainate).
The IC50 of `Nc1cccc(S(N)(=O)=O)c1` is reported as > 300 µM (PH domain leucine-rich repeat-containing protein phosphatase 2 (Homo sapiens, UniProt Q6ZVD8); enzyme activity, inhibitor).
`NC(=O)c1cn(-c2ccc(F)cc2)c2ccc(NCCc3ccncc3)cc2c1=O` has an IC50 of 0.376 µM (Grm2 (Rattus norvegicus, UniProt P31421); calcium mobilization, negative allosteric modulator).
`CS(=O)(=O)NCC#Cc1ccc(N2C(=O)[C@H](CC[C@H](O)c3ccc(F)cc3)[C@H]2c2ccc(O[C@@H]3O[C@H](C(=O)O)[C@@H](O)[C@H](O)[C@H]3O)cc2)cc1` (single isomer, unassigned) gave an IC50 of 0.0502 µM (NPC1L1 (Homo sapiens, UniProt Q9UHC9); cholesterol uptake, inhibitor; MDCK-II expressing human NPC1L1; together with: [3H]cholesterol).
`CCOc1ccc(S(=O)(=O)NC(=O)Cc2ccc(Br)cc2)cc1Br` has an IC50 of 4.42 µM (CGAS (Homo sapiens, UniProt Q8N884); enzyme activity, inhibitor, Kinase-Glo ATP depletion; 25 °C, 100 nM enzyme).
For `CC(=O)Nc1ccc(/C=C/c2c[nH]c3ccc(C#N)cc23)cc1`, the IC50 was 4 µM (Amyloid-beta precursor protein, amyloid-beta peptide (APP, Homo sapiens, UniProt P05067); Aβ42 oligomerisation, ELISA).
With `O=C(Nc1ccc(-c2nc3ccc(NC(=O)C4CCOCC4)cc3s2)cc1)C1CCOCC1` the IC50 was > 20 µM (Tyrosine-protein kinase SYK, with FCER1G (SYK, Homo sapiens, UniProt P43405); protein binding, inhibitor, TR-FRET).
Under mRNA level, `Cc1ncsc1-c1ccc([C@H](C)NC(=O)[C@@H]2C[C@@H](O)CN2C(=O)[C@@H](NC(=O)CCCCCCC(=O)N2CCN(C[C@]3(C)CCC(c4ccc(Cl)cc4)=C(CN4CCN(c5ccc(C(=O)NS(=O)(=O)c6ccc(N[C@H](CCN7CCOCC7)CSc7ccccc7)c(S(=O)(=O)C(F)(F)F)c6)cc5)CC4)C3)CC2)C(C)(C)C)cc1` is recorded as “decreased” (refers to: Cdkn2a; naturally aged mice, liver; intraperitoneal, 5 mg/kg every 3 days).
The IC50 of `Cc1ccc(NC(=O)c2cc3ccccc3c(N=Nc3cc(S(=O)(=O)O)ccc3O)c2O)c(C)c1` is reported as 27.3 µM (Bcl-2-related protein A1 (Mus musculus, UniProt Q07440, C113S/P104K); binding, inhibitor, fluorescence polarization competition; 3 µM Bfl-1/A1 protein, together with: 375 nM FITC-Noxa peptide).
The IC50 of `COc1ccc(C(=O)CCc2cc([C@@H](CCc3ccc(O)cc3OC)c3ccc(O)cc3)c(O)cc2OC)cc1` is reported as 0.51 µM (ALOX5 (Homo sapiens, UniProt P09917); enzyme activity; cell-free).
The CC50 of `Cc1cc(SCc2sc(-c3cccc(Cl)c3Cl)nc2C)ccc1OCC(=O)O` is reported as > 100 µM (HEK293T; 18 h).
The IC50 of `NCCOCCOCCNC(=O)[C@@H]1CCCCNC(=O)[C@H](Cc2ccc([N+](=O)[O-])cc2)NC(=O)[C@H](CC2CCCCC2)NC(=O)C[C@H](O)[C@H](CC2CCCCC2)NC(=O)/C=C\C(=O)N1` is reported as 6.8 µM (MAPKAPK2 (Homo sapiens, UniProt P49137); inhibitor, Z'-LYTE).
With `Cc1cc(SCc2sc(-c3cccc(F)c3)nc2C)ccc1OCC(=O)O` the CC50 was > 100 µM (HEK293T; 18 h).
`O=C(CCCCCn1c(=S)[nH]c2ccccc2c1=O)N1CCN(c2ccc(O)cc2)CC1` has an IC50 of 10.8 µM (Estrogen receptor (ESR1, Homo sapiens, UniProt P03372); reporter gene, coactivator binding inhibitor, luciferase reporter; HEC-1 cells transfected with ERα; partial inhibition, together with: estradiol 1 nM).
The IC50 of `O=C(c1c(F)ccc(NS(=O)(=O)Cc2ccccc2)c1F)c1c[nH]c2ncc(-c3cnc(C4CC4)nc3)cc12` is reported as 0.2 µM (MAP2K4 (Homo sapiens, UniProt P45985); kinase activity, inhibitor).
The IC50 of `C[C@@H](CC(=O)NCc1cccc2ccccc12)NC(=O)[C@H](CC(=O)NC(C)(C)C)NC(=O)OC(C)(C)C` is reported as 0.135 ± 0.022 µM (Proteasome component C5/PSMB8 (Homo sapiens, UniProt P20618+P28062); enzyme activity, inhibitor; together with: Ac-ANW-AMC).
For `CCOC(=O)/C=C/CNCCCCN1c2ccccc2CCc2ccc(Cl)cc21`, “ubiquitination TR-FRET signal AUC” read 21200 a.u. and 13100 a.u. and 12200 a.u. and 18400 a.u. and 11600 a.u. and 10100 a.u. (E3 ubiquitin-protein ligase NEDD4 (Homo sapiens, UniProt P46934); inhibitor, Ub-TR-FRET; 33.33 µM, 1 h preincubation, HECT domain, together with: ATP 2 mM; higher = more ubiquitination).
`C=CC(=O)N1CCC(c2cc(Nc3cc4n(n3)CCOC4)c3ncnn3c2)C1` (single isomer, unassigned) has an IC50 of > 1 µM (TMD8 wild type; calcium flux, FLIPR; 2 h preincubation, together with: anti-IgM).
`Nc1ncc(-c2ccc3ncnc(N4CCc5cc(F)c(Cl)cc54)c3c2)cn1` gave a Cmax of 17400 ng/mL (CD1 mouse, brain; oral, 100 mg/kg).
With `COc1ccc2[nH]cc(/C=C/c3ccc(NS(C)(=O)=O)cc3)c2c1` the IC50 was > 100 µM (IDO1 (Homo sapiens, UniProt P14902); enzyme activity, inhibitor).
With `Cc1ncsc1-c1ccc(CNC(=O)[C@@H]2C[C@@H](O)CN2C(=O)c2cccc(O)c2)cc1` the IC50 was 3.5 ± 0.2 µM (von Hippel-Lindau disease tumor suppressor, with elongin B, C (VHL, Homo sapiens, UniProt P40337); binding, fluorescence polarization; 10% DMSO, together with: FAM-HIF1α peptide tracer).
For `NC1CCN(Cc2ccn3ncnc(Nc4cccc(-c5cnco5)c4)c23)CC1`, the IC50 was 0.77 µM (AAK1 (Homo sapiens, UniProt Q2M2I8)).
For `COc1ccc(C(NS(=O)(=O)c2cccs2)C(=O)Nc2ccc(Cl)cc2)cc1` (stereo not drawn), the IC50 was 14 ± 0.76 µM (Uracil nucleotide/cysteinyl leukotriene receptor, long isoform (GPR17, Homo sapiens, UniProt Q13304); calcium mobilization, antagonist; 1321-N1).
The IC50 of `COc1cc([C@@H]2c3cc4c(cc3C=C(C=O)[C@H]2C(=O)OCCCn2cnc3c(Cl)ncnc32)OCO4)cc(OC)c1OC` is reported as > 20 µM (Tubulin alpha/beta heterodimer (Leishmania infantum, UniProt A0A381MCS3+A4HTR0); tubulin polymerization, inhibitor; 37 °C, together with: tubulin 1.2 mg/mL).

Some of these lines once more:
The IC50 of `COc1ccc(C(=O)CCc2cc([C@@H](CCc3ccc(O)cc3OC)c3ccc(O)cc3)c(O)cc2OC)cc1` is reported as 0.51 µM (ALOX5 (Homo sapiens, UniProt P09917); enzyme activity; cell-free).
For `COc1ccc(C(NS(=O)(=O)c2cccs2)C(=O)Nc2ccc(Cl)cc2)cc1` (stereo not drawn), the IC50 was 14 ± 0.76 µM (Uracil nucleotide/cysteinyl leukotriene receptor, long isoform (GPR17, Homo sapiens, UniProt Q13304); calcium mobilization, antagonist; 1321-N1).
For `NC1CCN(Cc2ccn3ncnc(Nc4cccc(-c5cnco5)c4)c23)CC1`, the IC50 was 0.77 µM (AAK1 (Homo sapiens, UniProt Q2M2I8)).
The CC50 of `Cc1cc(SCc2sc(-c3cccc(Cl)c3Cl)nc2C)ccc1OCC(=O)O` is reported as > 100 µM (HEK293T; 18 h).
